Experimental data pooled from the literature.
Parts stem from different laboratories: compare values within a part only.
Chain of UniProt O14920 (whole entry, looked up): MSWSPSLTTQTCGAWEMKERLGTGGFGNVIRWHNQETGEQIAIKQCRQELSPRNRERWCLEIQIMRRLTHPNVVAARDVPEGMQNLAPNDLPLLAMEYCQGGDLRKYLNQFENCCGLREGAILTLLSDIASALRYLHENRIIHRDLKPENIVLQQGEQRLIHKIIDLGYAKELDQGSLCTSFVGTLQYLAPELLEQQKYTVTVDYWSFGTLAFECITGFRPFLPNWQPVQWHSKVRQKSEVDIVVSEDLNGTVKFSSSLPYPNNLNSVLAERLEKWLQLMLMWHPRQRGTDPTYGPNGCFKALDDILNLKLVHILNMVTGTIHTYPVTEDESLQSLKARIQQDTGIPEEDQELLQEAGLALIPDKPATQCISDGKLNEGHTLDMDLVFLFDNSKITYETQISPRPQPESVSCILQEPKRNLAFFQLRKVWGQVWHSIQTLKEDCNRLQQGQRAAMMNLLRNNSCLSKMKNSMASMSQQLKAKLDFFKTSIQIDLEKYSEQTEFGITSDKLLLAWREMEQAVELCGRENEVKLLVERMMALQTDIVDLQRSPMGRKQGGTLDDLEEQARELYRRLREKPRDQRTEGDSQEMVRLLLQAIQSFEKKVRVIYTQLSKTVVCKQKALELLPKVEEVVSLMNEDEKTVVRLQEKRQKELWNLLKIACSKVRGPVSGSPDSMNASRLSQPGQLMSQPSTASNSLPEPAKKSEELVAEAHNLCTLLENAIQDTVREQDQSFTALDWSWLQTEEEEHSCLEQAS
Chain of UniProt O95819 (whole entry, looked up): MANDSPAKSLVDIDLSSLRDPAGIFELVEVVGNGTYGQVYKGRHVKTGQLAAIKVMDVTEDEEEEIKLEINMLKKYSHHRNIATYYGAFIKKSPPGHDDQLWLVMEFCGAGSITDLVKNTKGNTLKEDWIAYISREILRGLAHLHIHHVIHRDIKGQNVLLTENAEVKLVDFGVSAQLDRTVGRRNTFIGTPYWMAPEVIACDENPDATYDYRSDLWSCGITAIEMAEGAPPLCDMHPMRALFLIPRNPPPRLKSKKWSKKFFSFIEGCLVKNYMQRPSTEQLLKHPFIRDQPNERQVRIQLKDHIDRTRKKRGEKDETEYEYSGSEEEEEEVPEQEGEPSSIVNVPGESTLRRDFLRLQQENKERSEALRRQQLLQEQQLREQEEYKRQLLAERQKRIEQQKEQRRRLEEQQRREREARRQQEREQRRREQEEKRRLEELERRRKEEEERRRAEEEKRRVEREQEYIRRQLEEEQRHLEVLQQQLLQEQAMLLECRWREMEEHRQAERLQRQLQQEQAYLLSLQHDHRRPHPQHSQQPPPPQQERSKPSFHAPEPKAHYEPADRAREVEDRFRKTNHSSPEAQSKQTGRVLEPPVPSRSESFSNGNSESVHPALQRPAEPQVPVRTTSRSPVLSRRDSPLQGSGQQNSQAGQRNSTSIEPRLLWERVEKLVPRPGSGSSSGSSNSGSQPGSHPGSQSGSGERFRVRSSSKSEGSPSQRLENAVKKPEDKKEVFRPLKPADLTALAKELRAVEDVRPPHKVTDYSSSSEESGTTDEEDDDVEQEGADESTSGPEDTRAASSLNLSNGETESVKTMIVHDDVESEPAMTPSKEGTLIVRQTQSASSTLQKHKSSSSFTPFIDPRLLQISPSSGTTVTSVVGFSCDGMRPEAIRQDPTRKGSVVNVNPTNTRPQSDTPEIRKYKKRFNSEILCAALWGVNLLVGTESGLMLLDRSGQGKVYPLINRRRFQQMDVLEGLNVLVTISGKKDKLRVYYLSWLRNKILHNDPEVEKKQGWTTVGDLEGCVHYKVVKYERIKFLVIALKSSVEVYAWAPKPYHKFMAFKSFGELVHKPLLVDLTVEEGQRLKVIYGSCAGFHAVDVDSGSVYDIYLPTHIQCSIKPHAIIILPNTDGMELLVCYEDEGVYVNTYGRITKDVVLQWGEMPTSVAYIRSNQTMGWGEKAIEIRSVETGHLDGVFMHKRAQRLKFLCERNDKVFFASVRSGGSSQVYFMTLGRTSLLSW
Chain of UniProt Q14164 (whole entry, looked up): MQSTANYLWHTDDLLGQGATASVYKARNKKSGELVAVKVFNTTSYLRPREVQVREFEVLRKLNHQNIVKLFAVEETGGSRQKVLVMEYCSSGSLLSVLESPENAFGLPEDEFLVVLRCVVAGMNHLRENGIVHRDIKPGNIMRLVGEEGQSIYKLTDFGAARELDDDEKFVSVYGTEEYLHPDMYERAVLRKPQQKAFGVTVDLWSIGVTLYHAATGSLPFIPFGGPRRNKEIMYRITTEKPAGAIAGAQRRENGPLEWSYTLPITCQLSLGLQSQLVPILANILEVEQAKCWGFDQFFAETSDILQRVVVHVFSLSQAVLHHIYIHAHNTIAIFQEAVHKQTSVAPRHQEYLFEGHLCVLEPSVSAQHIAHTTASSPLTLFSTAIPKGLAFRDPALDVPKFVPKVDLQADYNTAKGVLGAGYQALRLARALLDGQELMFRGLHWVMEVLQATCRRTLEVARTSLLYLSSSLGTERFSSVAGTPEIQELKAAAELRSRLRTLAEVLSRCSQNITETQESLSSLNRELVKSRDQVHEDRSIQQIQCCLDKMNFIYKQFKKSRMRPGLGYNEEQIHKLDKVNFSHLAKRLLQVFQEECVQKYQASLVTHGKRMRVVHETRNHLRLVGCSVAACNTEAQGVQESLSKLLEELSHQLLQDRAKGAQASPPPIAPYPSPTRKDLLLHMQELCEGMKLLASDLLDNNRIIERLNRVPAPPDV
Chain of UniProt Q04771 (whole entry, looked up): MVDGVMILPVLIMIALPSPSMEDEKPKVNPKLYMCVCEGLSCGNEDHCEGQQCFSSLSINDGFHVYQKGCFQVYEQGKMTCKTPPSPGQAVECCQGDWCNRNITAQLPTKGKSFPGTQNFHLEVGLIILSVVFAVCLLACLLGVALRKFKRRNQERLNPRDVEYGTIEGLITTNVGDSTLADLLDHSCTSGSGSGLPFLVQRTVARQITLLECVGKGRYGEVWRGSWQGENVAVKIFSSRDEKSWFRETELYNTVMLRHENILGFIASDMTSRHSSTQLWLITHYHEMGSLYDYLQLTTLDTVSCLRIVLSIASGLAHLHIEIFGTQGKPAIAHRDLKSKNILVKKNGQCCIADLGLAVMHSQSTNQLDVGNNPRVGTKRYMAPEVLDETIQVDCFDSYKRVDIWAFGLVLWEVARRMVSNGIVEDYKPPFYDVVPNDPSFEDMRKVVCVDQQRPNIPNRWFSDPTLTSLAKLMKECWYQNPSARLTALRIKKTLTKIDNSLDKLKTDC
Chain of UniProt P35626 (whole entry, looked up): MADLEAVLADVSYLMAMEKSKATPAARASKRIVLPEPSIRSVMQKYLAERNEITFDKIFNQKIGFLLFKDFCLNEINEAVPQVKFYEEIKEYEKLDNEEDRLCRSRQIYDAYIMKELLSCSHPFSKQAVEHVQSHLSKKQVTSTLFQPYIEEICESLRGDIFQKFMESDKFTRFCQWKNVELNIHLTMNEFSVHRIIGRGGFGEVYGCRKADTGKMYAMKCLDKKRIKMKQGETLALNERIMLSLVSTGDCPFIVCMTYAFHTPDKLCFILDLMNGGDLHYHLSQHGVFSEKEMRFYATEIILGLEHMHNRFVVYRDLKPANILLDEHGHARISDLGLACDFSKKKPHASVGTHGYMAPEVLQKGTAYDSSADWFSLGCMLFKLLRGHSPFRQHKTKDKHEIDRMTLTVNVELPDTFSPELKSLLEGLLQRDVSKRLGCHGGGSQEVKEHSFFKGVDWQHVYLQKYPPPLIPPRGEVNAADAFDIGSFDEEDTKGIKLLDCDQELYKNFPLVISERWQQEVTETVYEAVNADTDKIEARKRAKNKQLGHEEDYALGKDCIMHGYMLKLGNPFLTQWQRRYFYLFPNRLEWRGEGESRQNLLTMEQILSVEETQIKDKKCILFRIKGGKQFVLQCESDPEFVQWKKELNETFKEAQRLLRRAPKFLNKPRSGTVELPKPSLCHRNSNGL
Chain of UniProt Q9HBX9 (whole entry, looked up): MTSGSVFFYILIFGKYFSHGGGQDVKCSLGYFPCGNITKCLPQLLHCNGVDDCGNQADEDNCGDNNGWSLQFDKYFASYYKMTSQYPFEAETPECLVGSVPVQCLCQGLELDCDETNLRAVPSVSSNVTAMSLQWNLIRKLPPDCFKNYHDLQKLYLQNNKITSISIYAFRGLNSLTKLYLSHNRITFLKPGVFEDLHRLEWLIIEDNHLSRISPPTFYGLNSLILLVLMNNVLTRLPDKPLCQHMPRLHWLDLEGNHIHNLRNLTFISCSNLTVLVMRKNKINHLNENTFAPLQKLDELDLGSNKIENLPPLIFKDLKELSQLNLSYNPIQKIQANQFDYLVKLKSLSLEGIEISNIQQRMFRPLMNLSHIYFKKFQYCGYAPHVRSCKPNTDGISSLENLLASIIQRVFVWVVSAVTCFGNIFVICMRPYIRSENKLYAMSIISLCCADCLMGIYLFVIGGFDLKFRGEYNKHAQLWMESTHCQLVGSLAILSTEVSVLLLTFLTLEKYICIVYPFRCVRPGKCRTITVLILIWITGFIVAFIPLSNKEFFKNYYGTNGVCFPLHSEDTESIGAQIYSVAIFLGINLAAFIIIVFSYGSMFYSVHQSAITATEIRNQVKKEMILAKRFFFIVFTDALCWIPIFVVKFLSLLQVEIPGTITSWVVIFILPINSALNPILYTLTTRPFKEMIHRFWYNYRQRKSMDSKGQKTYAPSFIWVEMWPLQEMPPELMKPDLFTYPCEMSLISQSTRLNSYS
Chain of UniProt P43119 (whole entry, looked up): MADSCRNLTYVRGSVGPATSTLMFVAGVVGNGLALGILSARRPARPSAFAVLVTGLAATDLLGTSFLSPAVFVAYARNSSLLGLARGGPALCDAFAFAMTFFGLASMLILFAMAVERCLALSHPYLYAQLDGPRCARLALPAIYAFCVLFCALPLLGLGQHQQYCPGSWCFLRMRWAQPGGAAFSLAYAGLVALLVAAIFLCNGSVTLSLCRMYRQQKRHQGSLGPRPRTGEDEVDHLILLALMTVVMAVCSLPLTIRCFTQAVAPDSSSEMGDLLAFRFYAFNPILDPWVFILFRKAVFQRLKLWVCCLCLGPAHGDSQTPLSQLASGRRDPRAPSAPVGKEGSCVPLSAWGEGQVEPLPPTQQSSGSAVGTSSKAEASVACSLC

Block 1
SMILES: CC(=O)c1c(NS(C)(=O)=O)c2cc(-c3ccc(Cl)cc3)c(-c3ccc(Cl)cc3Cl)nc2n(C)c1=O
Concentration: 1 µM
| target | observed | technique | remaining binding [%] |
| --- | --- | --- | --- |
| PIK3C2G (Homo sapiens, UniProt O75747) | cell-free assay | competition with immobilised ligand | 91 |
| IKBKB (Homo sapiens, UniProt O14920) | cell-free assay | competition with immobilised ligand | 98 |
| CASK (Homo sapiens, UniProt O14936) | cell-free assay | competition with immobilised ligand | 92 |
| GRK1 (Homo sapiens, UniProt Q15835) | cell-free assay | competition with immobilised ligand | 84 |
| ACVR1 (Homo sapiens, UniProt Q04771) | cell-free assay | competition with immobilised ligand | 93 |
| NUAK1 (Homo sapiens, UniProt O60285) | cell-free assay | competition with immobilised ligand | 86 |
| Tyrosine-protein kinase ABL1, phosphorylated (ABL1, Homo sapiens, UniProt P00519, H396P) | cell-free assay | competition with immobilised ligand | 100 |
| TRPM6 (Homo sapiens, UniProt Q9BX84) | cell-free assay | competition with immobilised ligand | 100 |
| MAP2K5 (Homo sapiens, UniProt Q13163) | cell-free assay | competition with immobilised ligand | 80 |
| CAMK2G (Homo sapiens, UniProt Q13555) | cell-free assay | competition with immobilised ligand | 100 |
| MAP4K4 (Homo sapiens, UniProt O95819) | cell-free assay | competition with immobilised ligand | 100 |
| CDC42BPG (Homo sapiens, UniProt Q6DT37) | – | competition binding | 100 |
| MARK1 (Homo sapiens, UniProt Q9P0L2) | cell-free assay | competition with immobilised ligand | 100 |
| FGR (Homo sapiens, UniProt P09769) | cell-free assay | competition with immobilised ligand | 100 |
| Tyrosine-protein kinase ABL1, phosphorylated (ABL1, Homo sapiens, UniProt P00519, F317L) | cell-free assay | competition with immobilised ligand | 89 |
| TSSK3 (Homo sapiens, UniProt Q96PN8) | cell-free assay | competition with immobilised ligand | 100 |
| PRKAA1 (Homo sapiens, UniProt Q13131) | cell-free assay | competition with immobilised ligand | 100 |
| MAP3K12 (Homo sapiens, UniProt Q12852) | cell-free assay | competition with immobilised ligand | 100 |
| Tyrosine-protein kinase ABL1, non-phosphorylated (ABL1, Homo sapiens, UniProt P00519, F317I) | binding | competition with immobilised ligand | 76 |
| NTRK1 (Homo sapiens, UniProt P04629) | cell-free assay | competition with immobilised ligand | 64 |
| GRK7 (Homo sapiens, UniProt Q8WTQ7) | cell-free assay | competition with immobilised ligand | 83 |
| CDK16 (Homo sapiens, UniProt Q00536) | cell-free assay | competition with immobilised ligand | 76 |
| IRAK1 (Homo sapiens, UniProt P51617) | cell-free assay | competition with immobilised ligand | 92 |
| GRK4 (Homo sapiens, UniProt P32298) | cell-free assay | competition with immobilised ligand | 94 |
| DCLK1 (Homo sapiens, UniProt O15075) | cell-free assay | competition with immobilised ligand | 98 |

Block 2
SMILES: CC(C)n1cnc(-c2ccc(F)cc2)c1-c1ncc(C(=O)Nc2ccc(N3CCN(C)CC3)cc2)[nH]1
Technique: phase 2a clinical trial
Host: idiopathic pulmonary fibrosis patients
| measured | dose | setting | relative to | patients with TEAEs [%] |
| --- | --- | --- | --- | --- |
| back pain | dose not given | grade 1, all drug arms | patients | 1 |
| reproductive and breast disorders | 30 mg once daily | grade 4 maximum intensity | – | 0 |
| back pain | 60 mg once daily | grade 2 maximum intensity | patients | 1 |
| reproductive and breast disorders | 30 mg once daily | grade 5 maximum intensity | – | 0 |
| reproductive and breast disorders | 60 mg once daily | grade 4 maximum intensity | – | 0 |
| respiratory tract infection | 60 mg once daily | grade 2 maximum intensity | patients | 1 |
| neoplasms (SOC) | 60 mg once daily | grade 5 maximum intensity | – | 0 |
| reproductive and breast disorders | 30 mg once daily | grade 2 maximum intensity | – | 0 |
| neoplasms (SOC) | 60 mg once daily | grade 4 maximum intensity | – | 0 |
| reproductive and breast disorders | dose not given | grade 5, all drug arms | – | 0 |
| infections and infestations | 30 mg once daily | grade 2 maximum intensity | patients | 3 |
| chest discomfort | dose not given | grade 1, all drug arms | patients | 1 |
| muscular weakness | dose not given | grade 1, all drug arms | patients | 1 |

Block 3
Structure (SMILES): CC#CC(=O)Nc1cc2c(Nc3ccc(F)c(Cl)c3)ncnc2cn1
Observed: enzyme activity
Action: inhibitor
Concentration: 0.5 µM
Relative to: control
| target | remaining activity [%] |
| --- | --- |
| Cyclin-dependent kinase 5, with p25 (CDK5, Homo sapiens, UniProt Q00535) | 99.2 |
| STK39 (Homo sapiens, UniProt Q9UEW8) | 91.3 |
| CAMK2D (Homo sapiens, UniProt Q13557) | 100 |
| Tyrosine-protein kinase Lyn, isoform B (LYN, Homo sapiens, UniProt P07948) | 96.1 |
| STK11 (Homo sapiens, UniProt Q15831) | 99.6 |
| GRK3 (Homo sapiens, UniProt P35626) | 103 |
| Cyclin-dependent kinase 4, with cyclin D1 (CDK4, Homo sapiens, UniProt P11802) | 98.6 |
| TGFBR1 (Homo sapiens, UniProt P36897) | 98.7 |
| OXSR1 (Homo sapiens, UniProt O95747) | 109 |
| MAPK9 (Homo sapiens, UniProt P45984) | 91.8 |
| cGMP-dependent protein kinase 1, isoform beta (PRKG1, Homo sapiens, UniProt Q13976) | 91.7 |
| DAPK2 (Homo sapiens, UniProt Q9UIK4) | 105 |
| Protein kinase C beta type, isoform beta-I (PRKCB, Homo sapiens, UniProt P05771) | 97.4 |
| TGFBR2 (Homo sapiens, UniProt P37173) | 123 |
| MAP3K3 (Homo sapiens, UniProt Q99759) | 107 |
| PRKCA (Homo sapiens, UniProt P17252) | 101 |
| IKBKE (Homo sapiens, UniProt Q14164) | 98.9 |
| IKBKB (Homo sapiens, UniProt O14920) | 102 |
| PRKACA (Homo sapiens, UniProt P17612) | 97.7 |
| CAMKK2 (Homo sapiens, UniProt Q96RR4) | 103 |
| DAPK1 (Homo sapiens, UniProt P53355) | 94.7 |
| STK10 (Homo sapiens, UniProt O94804) | 72.6 |
| CHEK2 (Homo sapiens, UniProt O96017) | 98.8 |

Block 4
SMILES: CCN(c1nc(N)c(C(=O)N=C(N)N)nc1Cl)C(C)C
Observed: β-arrestin recruitment
Action: agonist
Technique: PRESTO-Tango
Concentration: 10 µM
Relative to: untreated
| target | fold over basal |
| --- | --- |
| CCR5 (Homo sapiens, UniProt P51681) | 1.94 |
| GPR55 (Homo sapiens, UniProt Q9Y2T6) | 1.25 |
| P2Y purinoceptor 6 (P2RY6, Homo sapiens, UniProt Q15077) | 1.39 |
| ADGRG2 (Homo sapiens, UniProt Q8IZP9) | 0.99 |
| PTGIR (Homo sapiens, UniProt P43119) | 0.72 |
| EDNRB (Homo sapiens, UniProt P24530) | 1.37 |
| PROKR1 (Homo sapiens, UniProt Q8TCW9) | 1.02 |
| Relaxin receptor 1 (RXFP1, Homo sapiens, UniProt Q9HBX9) | 1.17 |

Some of these lines once more (block 1):
| target | observed | technique | remaining binding [%] |
| --- | --- | --- | --- |
| PIK3C2G (Homo sapiens, UniProt O75747) | cell-free assay | competition with immobilised ligand | 91 |
| FGR (Homo sapiens, UniProt P09769) | cell-free assay | competition with immobilised ligand | 100 |
| GRK7 (Homo sapiens, UniProt Q8WTQ7) | cell-free assay | competition with immobilised ligand | 83 |
| MARK1 (Homo sapiens, UniProt Q9P0L2) | cell-free assay | competition with immobilised ligand | 100 |
| TRPM6 (Homo sapiens, UniProt Q9BX84) | cell-free assay | competition with immobilised ligand | 100 |
| Tyrosine-protein kinase ABL1, phosphorylated (ABL1, Homo sapiens, UniProt P00519, H396P) | cell-free assay | competition with immobilised ligand | 100 |
